Results collected from several papers.
Every numbered part comes from another study and shows a few of its results, in no order.

Study 1
Target: RNA binding protein fox-1 homolog 2, RRM domain, GST-SBP tag (RBFOX2, Homo sapiens, UniProt O43251-10, residues 100-194)
Method: RNA Bind-n-Seq
Molecule type: RNA
Matrix: in vitro
Concentration: 365 nM
Notes: natural RNA segment, single round, ends assumed
Relative to: no-protein control
Reading: higher = stronger binding
Shared flanks, not repeated: GGGAGUUCUACAGUCCGACGAUC … UGGAAUUCUCGGGUGCCAA
Residues (chain): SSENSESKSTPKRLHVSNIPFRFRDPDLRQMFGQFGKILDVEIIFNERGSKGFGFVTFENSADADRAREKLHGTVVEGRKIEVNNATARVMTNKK
Under “RBNS enrichment (R)”, `ACGUGCUUUUAGCAGUUGGCUGGAAUGUGUUCACUAGGUUCCGUUAUGUUUGGUAAUAUCAUCUUGAAAAGUCCCUGUAAUAGAUCAAGGAGACUGCAUUCCCUGCCCUG` is recorded as 0.438.
`GCAAAAAGGUCUGAAAAGCAAGGGAAUACCAUUAUUUUCGGAUUAGCGGUUUAUUAAGCUCUUCUAUAUUAAACACUAAUAGAUAUUCAAUAACGGAGUAAACUGUUCCA` — result for “RBNS enrichment (R)”: 0.265.
Under “RBNS enrichment (R)”, `AAUGGAGUACUCAUCUUCUCAUAGAAGAGCCGAUUAAUAUUAUCUAAGUACUUUAGUAGAAAACAACCUGUCAAUUUCUGAGGAAAAUAACAUUUUAGAAGCAAAGAACA` is recorded as 0.398.
`AAGAAGCUUCAAGAAAGCACUGGGUUGUAGGUGUUAAAAUAUCCUCUAGUGAUGUUCACCACUUUUAUUUAUUCCUACCUAUUUAUUUAUUUCAUAGCACCAGUAUUCAG` — result for “RBNS enrichment (R)”: 0.963.
`AAGAAACGUUAGUUAGUGGGGCAAUACAUUCAUGCAAGGUUGGUGGCGCCUUAGAGAUGGGCGAGUGUCUGAGAAGACCUGCUCGGAGCACACUGCACUCUUUGAUCCUC`: “RBNS enrichment (R)” 1.89.
`AGUUGUCCUCUGAUAUUUUCACAGCCUGUUAGUGGCGGCUGAUCUGUAGAGGUAUGAAAAUACAGCCCCAAAGGGGGAAUUUGUCAUGGGGAAGGGCCAGCCACUGACUA` — result for “RBNS enrichment (R)”: 1.16.
For `AAUAAACCUUUAUGUACUUAAAAUUAUACAGAAAAUAGAAUAAAGUUAAUACCAAACUUGUUUAGUUUUCACCUGAUGUUUUCAGUACAGAGAUGUGAAAAUACUGAAAA`, “RBNS enrichment (R)” read 0.379.
Under “RBNS enrichment (R)”, `CUGCCCAGUGAGCAACUUAUACCCUGCACUGGAUAGUGGCAAGUACCCAGCCUGGGACUUCCCUGGAACUGAGGGAUGCAUAGCUGUCUGGGGAAGCACUGACGGCCACU` is recorded as 0.577.

Study 2
Target: Interferon regulatory factor 5, full length, phosphomimetic (IRF5, Homo sapiens, UniProt Q13568-2, residues 1-514, S451D/S453D/S456D/S462D)
Method: protein-binding microarray
Molecule type: double-stranded DNA, one strand shown
Matrix: in vitro
Concentration: 940 nM top
Notes: 60-bp whole probe
Added: salmon DNA 0.4 mg/ml
Relative to: random background probes
Reading: higher = stronger binding
Shared flanks, not repeated: GCCTAGCAC … GTCTTGATTCGCTTGACGCTGCTG
`GTAGATATCGGGTATCGATTAGTGCTA` — result for “fitted relative affinity”: 2.93 z-score.
`TTAGGTTTCGGTATCAGTTAGTGCTAG`: “fitted relative affinity” 14.4 z-score.
`ATTCCTCTCACCTCGGCCTCGTGCTAG` — result for “fitted relative affinity”: 2 z-score.
`CCTAGGGGCGGGGCCAAATGGTGCTAG` — result for “fitted relative affinity”: 1.41 z-score.
`TTAGAACTGGGGTATCGCTTAGTGCTA`: “fitted relative affinity” 1.23 z-score.
`GTCGGTCTCGGTCTCGGGACGTGCTAG`: “fitted relative affinity” 6.51 z-score.
`AAGGATTTCAGTTTCTCTTTGTGCTAG` — result for “fitted relative affinity”: 2.99 z-score.
For `GACGATTTCGGGAATCGAGACGTGCTA`, “fitted relative affinity” read 0.491 z-score.
`GTTTCTTTTCTTTTCTTTTTGTGCTAG`: “fitted relative affinity” 2.99 z-score.

Study 3
Target: Histone acetyltransferase KAT6A, winged helix 2, GST fusion (KAT6A, Homo sapiens, UniProt Q92794, residues 85-181)
Method: protein binding microarray
Molecule type: double-stranded DNA, one strand shown
Matrix: in vitro
Concentration: not given
Notes: 8-mer, flanks averaged, mean of 2 arrays, mostly near background
Relative to: not given
Reading: higher = stronger binding
Residues (chain): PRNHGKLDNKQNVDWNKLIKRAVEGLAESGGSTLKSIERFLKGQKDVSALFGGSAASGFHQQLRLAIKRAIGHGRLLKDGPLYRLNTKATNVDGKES
`ATATGAAA` has an E-score of 0.0191.
For `ATCCCTAC`, the E-score was -0.0326.
The E-score of `GTCCCAGA` is reported as -0.00613.
For `AGCTCAAA`, the E-score was 0.0988.
With `ACCACTCA` the E-score was 0.0718.
`TCTACTCA` gave an E-score of -0.136.
The E-score of `AGGAGCAA` is reported as 0.00437.
`ATAACCCC` gave an E-score of -0.204.
With `AGCGAGCG` the E-score was 0.201.
For `TGATCTAA`, the E-score was 0.161.
`ATATTCCC` gave an E-score of 0.0157.
`CATGAAAG` gave an E-score of 0.0252.
`CAACTAGG` gave an E-score of 0.0479.

Further values, each from its own experiment
With `PhoQ, residues 284 288 289 292 302 303 QWGLFV` the fold induction was 4.02 (PhoP, residues 12 14 15 18 19 NHTVL (Escherichia coli, UniProt P23836); Sort-seq, refers to: YFP reporter; E. coli; PhoQ-PhoP variant library, added: 10 µM Mg2+; relative to: high Mg2+ state, higher = stronger signaling).

For quick reference, copied from above (study 2):
`TTAGAACTGGGGTATCGCTTAGTGCTA`: “fitted relative affinity” 1.23 z-score.
For `GACGATTTCGGGAATCGAGACGTGCTA`, “fitted relative affinity” read 0.491 z-score.
`CCTAGGGGCGGGGCCAAATGGTGCTAG` — result for “fitted relative affinity”: 1.41 z-score.
`TTAGGTTTCGGTATCAGTTAGTGCTAG`: “fitted relative affinity” 14.4 z-score.
